Experimental data gathered from unrelated publications.
Parts stem from different laboratories: compare values within a part only. Changes are numbered by the printed parent chain.

Series 1
Target: Centromere-binding protein 1, full length, N-terminal tag (CBF1, Saccharomyces cerevisiae, UniProt P17106, residues 1-351)
Sequence of UniProt P17106 (whole entry, looked up): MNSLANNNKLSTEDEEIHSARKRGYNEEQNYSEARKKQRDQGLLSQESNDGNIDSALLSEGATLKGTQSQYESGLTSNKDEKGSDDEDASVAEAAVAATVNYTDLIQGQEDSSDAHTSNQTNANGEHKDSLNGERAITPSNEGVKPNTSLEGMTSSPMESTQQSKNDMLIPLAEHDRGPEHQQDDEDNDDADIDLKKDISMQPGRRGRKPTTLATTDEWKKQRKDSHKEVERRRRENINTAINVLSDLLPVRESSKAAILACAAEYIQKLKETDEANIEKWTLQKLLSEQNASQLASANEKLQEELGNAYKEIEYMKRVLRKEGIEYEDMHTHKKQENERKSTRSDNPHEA
Technique: protein-binding microarray
Molecule type: double-stranded DNA, one strand shown
Sample: in vitro
Concentration: 0.8 µM
Setting: whole 60-bp probe, no competitor
Reading: higher = stronger binding
Oligonucleotide	fluorescence intensity [a.u.]
GAAGACGCGTTCCGTGACACGTTAAAGGATAATTAGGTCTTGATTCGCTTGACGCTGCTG	718
GAAAAATATCATTTTCATAAGTCACATGATAAATAGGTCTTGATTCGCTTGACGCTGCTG	8540
GAAGTTATCATTTACCACGAGGTTGACTGTCTTTAGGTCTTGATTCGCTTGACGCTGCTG	625
CTAGTTCTTCGAAGGCACATGGCGCCCCTATAATTCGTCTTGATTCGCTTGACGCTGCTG	605
GAAAAGCAACCACACCACATGAGCTCACAACCGTAGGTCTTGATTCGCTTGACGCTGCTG	544
CTATTTCTTAACGGTGACGAAGGATCACCATACTTCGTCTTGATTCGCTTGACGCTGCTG	587
CTACTTTAAAAATACCACGCCATTTTAGTAGGCTTCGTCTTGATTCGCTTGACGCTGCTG	513
CTAGCGCCTTTGTATGACGTGAAGCGATCCGCCTTCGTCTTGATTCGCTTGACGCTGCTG	521

Series 2
Target: ABI1, truncated, D143A, DHFR fusion (Arabidopsis thaliana)
Technique: DHFR PCA, deep sequencing
Sample: yeast
Setting: methotrexate growth selection, single substitutions
Together with: (+)-ABA 0.0091 µM
Reference: wild-type fitted maximum
Reading: higher = stronger binding
Parent: PYL1, truncated, DHFR fusion (Arabidopsis thaliana); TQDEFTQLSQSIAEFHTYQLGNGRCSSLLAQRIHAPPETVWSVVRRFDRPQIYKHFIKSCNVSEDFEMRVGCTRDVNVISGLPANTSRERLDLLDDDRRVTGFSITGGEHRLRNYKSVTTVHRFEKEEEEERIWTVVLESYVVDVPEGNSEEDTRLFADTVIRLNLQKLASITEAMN; partner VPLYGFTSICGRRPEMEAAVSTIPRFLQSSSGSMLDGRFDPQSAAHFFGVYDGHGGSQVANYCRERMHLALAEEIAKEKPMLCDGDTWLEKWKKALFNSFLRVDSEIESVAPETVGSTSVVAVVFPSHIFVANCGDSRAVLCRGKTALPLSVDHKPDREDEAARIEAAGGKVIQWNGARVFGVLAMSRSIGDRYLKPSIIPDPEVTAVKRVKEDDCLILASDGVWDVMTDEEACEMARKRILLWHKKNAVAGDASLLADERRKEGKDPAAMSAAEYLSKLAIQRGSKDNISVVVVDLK
Change	relative binding score
E64T	25.6%
E174S	2.23%
V44T	0.668%
C72D	27.6%
L112H	-5.5%
V100P	-5.37%
E131H	65.1%
R24N	4.64%

Series 3
Target: JDP2, bZIP domain (human)
Technique: DHFR protein complementation
Sample: yeast
Setting: single substitutions, most at no-binding floor
Reference: wild-type JUN-FOS pair
Reading: higher = stronger binding
Parent: JUN, bZIP domain (human); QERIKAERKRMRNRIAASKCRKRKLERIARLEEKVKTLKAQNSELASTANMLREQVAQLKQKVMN; partner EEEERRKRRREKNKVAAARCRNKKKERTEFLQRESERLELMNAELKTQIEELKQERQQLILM
Change	binding fitness [natural log]
A29Q	0.222
K39S	0.269
E44S	0.213
K39E	0.35
A49T	0.132
T48D	0.271
Q55G	0.175
Q41P	-1.12

Mixed results
Parent: PafA, mature enzyme, eGFP fusion (Elizabethkingia meningoseptica, UniProt Q9KJX5); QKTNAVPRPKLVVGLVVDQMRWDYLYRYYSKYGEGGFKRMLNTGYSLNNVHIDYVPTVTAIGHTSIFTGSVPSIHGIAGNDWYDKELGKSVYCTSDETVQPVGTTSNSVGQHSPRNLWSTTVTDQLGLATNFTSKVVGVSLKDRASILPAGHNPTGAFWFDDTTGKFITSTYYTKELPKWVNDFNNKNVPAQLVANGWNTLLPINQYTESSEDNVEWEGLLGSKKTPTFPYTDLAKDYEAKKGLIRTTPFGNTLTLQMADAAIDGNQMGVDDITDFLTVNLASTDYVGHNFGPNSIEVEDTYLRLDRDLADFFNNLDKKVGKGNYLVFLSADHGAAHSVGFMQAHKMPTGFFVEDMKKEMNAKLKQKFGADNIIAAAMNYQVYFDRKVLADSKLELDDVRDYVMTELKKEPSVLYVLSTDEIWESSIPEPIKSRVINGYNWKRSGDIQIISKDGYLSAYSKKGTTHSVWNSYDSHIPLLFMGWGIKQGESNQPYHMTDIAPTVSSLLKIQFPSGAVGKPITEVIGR
Change	target	assay	test system	conditions	scale	quantity	value
Q448V	inorganic phosphate, free oxyanion	microfluidic competitive inhibition	in vitro, cell-free expressed	not given, derived from inhibition constants, unchanged parent 615000 nM	lower = stronger binding	phosphate dissociation constant	784 µM
